Values quoted from earlier work that unrelated publications cite.
Protocols differ between the studies behind these lines. ± marks the error that the study gave.
UGT1A1: UDP-glucuronosyltransferase 1A1 (UGT1A1, Homo sapiens, UniProt P22309)
Chain of UniProt P22309 (whole entry, looked up): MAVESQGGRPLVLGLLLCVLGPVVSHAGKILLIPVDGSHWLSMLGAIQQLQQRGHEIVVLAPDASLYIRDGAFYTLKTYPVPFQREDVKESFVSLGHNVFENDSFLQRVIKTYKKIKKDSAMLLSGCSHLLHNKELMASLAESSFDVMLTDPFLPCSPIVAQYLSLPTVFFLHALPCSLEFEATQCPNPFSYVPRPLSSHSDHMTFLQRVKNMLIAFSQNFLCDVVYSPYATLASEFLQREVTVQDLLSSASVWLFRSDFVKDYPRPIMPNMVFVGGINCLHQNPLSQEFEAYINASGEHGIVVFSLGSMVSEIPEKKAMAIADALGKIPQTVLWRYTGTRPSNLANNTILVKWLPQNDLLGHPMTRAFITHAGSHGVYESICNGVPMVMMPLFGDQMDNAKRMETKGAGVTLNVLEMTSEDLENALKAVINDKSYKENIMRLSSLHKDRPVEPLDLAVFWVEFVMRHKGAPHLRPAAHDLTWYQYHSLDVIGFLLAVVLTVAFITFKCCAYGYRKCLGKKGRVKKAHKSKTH
Chain of UniProt Q9NZQ7 (whole entry, looked up): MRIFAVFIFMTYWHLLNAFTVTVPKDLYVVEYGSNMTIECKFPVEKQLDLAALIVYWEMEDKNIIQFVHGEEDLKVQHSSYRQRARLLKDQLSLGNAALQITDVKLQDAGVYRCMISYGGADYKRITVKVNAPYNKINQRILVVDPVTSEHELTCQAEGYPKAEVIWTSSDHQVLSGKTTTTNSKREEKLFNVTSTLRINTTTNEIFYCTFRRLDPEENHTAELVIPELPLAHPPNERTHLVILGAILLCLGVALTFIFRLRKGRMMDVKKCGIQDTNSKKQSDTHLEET
Chain of UniProt P35462 (whole entry, looked up): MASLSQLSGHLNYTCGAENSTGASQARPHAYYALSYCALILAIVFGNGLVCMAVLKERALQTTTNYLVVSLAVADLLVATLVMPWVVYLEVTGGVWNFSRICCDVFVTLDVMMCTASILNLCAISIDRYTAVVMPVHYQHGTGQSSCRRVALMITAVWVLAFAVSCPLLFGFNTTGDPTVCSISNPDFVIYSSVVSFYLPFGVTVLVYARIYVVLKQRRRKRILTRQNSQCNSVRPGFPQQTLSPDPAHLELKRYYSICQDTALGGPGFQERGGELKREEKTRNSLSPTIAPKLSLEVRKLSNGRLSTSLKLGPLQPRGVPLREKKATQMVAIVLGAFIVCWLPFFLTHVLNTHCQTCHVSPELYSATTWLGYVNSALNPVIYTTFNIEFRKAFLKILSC
Chain of UniProt O15229 (whole entry, looked up): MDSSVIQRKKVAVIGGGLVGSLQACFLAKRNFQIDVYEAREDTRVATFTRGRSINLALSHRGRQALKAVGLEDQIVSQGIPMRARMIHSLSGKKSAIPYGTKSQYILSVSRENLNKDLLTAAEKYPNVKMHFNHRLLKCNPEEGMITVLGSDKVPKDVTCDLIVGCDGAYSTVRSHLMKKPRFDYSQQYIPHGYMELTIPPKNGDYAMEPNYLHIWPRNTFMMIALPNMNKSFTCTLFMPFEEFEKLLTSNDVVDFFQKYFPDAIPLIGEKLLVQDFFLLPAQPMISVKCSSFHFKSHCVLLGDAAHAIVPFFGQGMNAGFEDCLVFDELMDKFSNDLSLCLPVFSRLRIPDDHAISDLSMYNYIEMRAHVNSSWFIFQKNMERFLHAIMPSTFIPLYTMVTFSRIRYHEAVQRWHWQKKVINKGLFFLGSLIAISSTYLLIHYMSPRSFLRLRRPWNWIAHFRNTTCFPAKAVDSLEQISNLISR
Chain of UniProt P08908 (whole entry, looked up): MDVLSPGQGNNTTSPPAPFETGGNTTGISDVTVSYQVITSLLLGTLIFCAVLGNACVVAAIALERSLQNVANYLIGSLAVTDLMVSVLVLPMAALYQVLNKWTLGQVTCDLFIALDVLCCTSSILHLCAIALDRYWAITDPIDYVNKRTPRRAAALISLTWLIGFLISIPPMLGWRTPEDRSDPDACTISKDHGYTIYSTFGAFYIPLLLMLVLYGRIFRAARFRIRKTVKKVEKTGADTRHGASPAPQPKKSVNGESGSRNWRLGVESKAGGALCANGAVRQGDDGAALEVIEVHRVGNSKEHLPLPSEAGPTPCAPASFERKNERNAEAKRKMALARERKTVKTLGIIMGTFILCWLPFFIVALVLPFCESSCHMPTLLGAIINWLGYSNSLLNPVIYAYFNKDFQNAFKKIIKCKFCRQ
Chain of UniProt Q8IXJ6 (whole entry, looked up): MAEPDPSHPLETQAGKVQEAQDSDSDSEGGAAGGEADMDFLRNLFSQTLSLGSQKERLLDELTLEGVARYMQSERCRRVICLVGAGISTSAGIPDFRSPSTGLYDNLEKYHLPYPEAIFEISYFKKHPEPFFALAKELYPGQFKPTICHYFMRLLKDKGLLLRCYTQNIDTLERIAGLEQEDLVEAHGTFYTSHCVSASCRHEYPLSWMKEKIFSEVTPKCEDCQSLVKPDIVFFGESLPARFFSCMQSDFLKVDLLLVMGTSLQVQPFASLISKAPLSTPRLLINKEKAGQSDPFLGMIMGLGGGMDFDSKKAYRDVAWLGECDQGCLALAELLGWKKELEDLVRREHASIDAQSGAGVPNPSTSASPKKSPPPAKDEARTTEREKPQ
Chain of UniProt P40337 (whole entry, unmodified, looked up): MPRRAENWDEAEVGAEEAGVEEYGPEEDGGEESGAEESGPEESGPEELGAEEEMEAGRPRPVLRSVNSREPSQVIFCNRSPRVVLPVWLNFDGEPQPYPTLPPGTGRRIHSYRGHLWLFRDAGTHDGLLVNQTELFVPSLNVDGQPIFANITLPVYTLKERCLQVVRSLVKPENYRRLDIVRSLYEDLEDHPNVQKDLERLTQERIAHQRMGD

The Km of `Nc1ccccc1C(=O)CC(N)C(=O)O` (stereo not drawn) is reported as 7 µM (Kynurenine 3-monooxygenase (KMO, Homo sapiens, UniProt O15229); substrate).
`O=C(O)C1OC(Oc2cc(O)c3c(=O)c(O)c(-c4ccc(O)cc4)oc3c2)C(O)C(O)C1O` (stereo not drawn) has a Vmax of 1.38 ± 0.14 nmol/mg/min (UGT1A1; glucuronidation, substrate; Supersomes).
For `CCOC(=O)C(c1cc(Cl)c2cccnc2c1O)c1c[nH]c2ccccc12` (stereo not drawn), the IC50 was 4.81 µM (COLO 320 ABCB1-overexpressing; cell viability).
The Vmax of `O=C(O)C1OC(Oc2ccc(-c3cc(=O)c4ccccc4o3)cc2)C(O)C(O)C1O` (stereo not drawn) is reported as 0.85 ± 0.01 nmol/mg/min (UGT1A1; glucuronidation, substrate; Supersomes).
For `Cc1nc(-c2ccc(F)cc2)sc1C(=O)N[C@H](C(=O)Nc1cccc(C(N)=O)c1)c1ccc(OCc2ccccc2)cc1`, the inhibition was 88% (Genome polyprotein, NS2B-NS3 protease (dengue virus type 2, UniProt P29990); DENV-2 protease cell reporter; HeLa; 12.5 µM).
For `COc1ccc(Nc2nc(Nc3ccc(OCC[18F])cc3)ncc2Br)cc1`, the tissue uptake was 3.39 ± 0.25 %ID/g (S180 tumour-bearing mice, tumor; intravenous, 5 min).
For `CNC(=S)NCCCC[C@H](NC(=O)OCc1ccccc1)C(=O)N[C@@H](Cc1c[nH]c2ccccc12)C(=O)NC(C)C`, the inhibition was 74% (NAD-dependent protein deacetylase sirtuin-2 (SIRT2, Homo sapiens, UniProt Q8IXJ6); enzyme activity, inhibitor; 10 µM).
The ΔG of `Cc1ncsc1-c1ccc(CNC(=O)[C@@H]2C[C@@H](O)CN2C(=O)[C@@H](NC(=O)COCCOCCOCCNC(=O)C[C@@H]2N=C(c3ccc(Cl)cc3)c3c(sc(C)c3C)-n3c(C)nnc32)C(C)(C)C)cc1` is reported as -9.81 kcal/mol (von Hippel-Lindau disease tumor suppressor, with Elongin B/C (VHL, Homo sapiens, UniProt P40337); isothermal titration calorimetry; VCB titrated into compound).
With `O=C(O)C1OC(Oc2ccc3c(=O)c(O)c(-c4ccccc4)oc3c2)C(O)C(O)C1O` (stereo not drawn) the Vmax was 3.04 ± 0.42 nmol/mg/min (UGT1A1; glucuronidation, substrate; Supersomes).
With `CN(C)C/C=C/C(=O)Nc1ccc(C(=O)Nc2cccc(Nc3cc(-c4c[nH]c5ccccc45)ncn3)c2)cc1` the IC50 was 0.2 to 2.8 µM (PI5P4K alpha, beta, gamma; kinase activity, inhibitor).
The Dmax of `Cc1c(COc2ccc(CN3CCCCC3C(=O)NCCCn3cc(CCCC(=O)NCCCC[C@@H]4NC(=O)[C@@H](Cc5ccc(O)cc5)NC(=O)[C@H](CC(=O)O)NC(=O)CNC(=O)[C@H](CCCNC(=N)N)NC4=O)nn3)cc2Br)cccc1-c1ccccc1` (stereo partly drawn) is reported as 70% (Programmed cell death 1 ligand 1 (CD274, Homo sapiens, UniProt Q9NZQ7); degrader; MDA-MB-231).
`O=C(O)C1OC(Oc2ccc3oc(-c4ccc(O)cc4)c(O)c(=O)c3c2)C(O)C(O)C1O` (stereo not drawn) has a Vmax of 0.12 ± 0.01 nmol/mg/min (UGT1A1; glucuronidation, substrate; Supersomes).
The inhibition of `O=c1ccc(OCCCN2CCCCC2)nn1-c1ccc(Cl)c(Cl)c1` is reported as 30.8 ± 4.1% (5-hydroxytryptamine receptor 1A (HTR1A, Homo sapiens, UniProt P08908); 1.0 µM).
The ΔG of `Cc1ncsc1-c1ccc2c(c1)OCCOCCOC[C@@H](NC(=O)C[C@@H]1N=C(c3ccc(Cl)cc3)c3c(sc(C)c3C)-n3c(C)nnc31)COCCOCCOCC(=O)N[C@@H](C(C)(C)C)C(=O)N1C[C@H](O)C[C@H]1C(=O)NC2` is reported as -9.2 kcal/mol (Bromodomain-containing protein 4, BD2 (BRD4, Homo sapiens, UniProt O60885); isothermal titration calorimetry; BRD4 titrated into compound).
`CCC1C=C(C)C(O)C(C)CC(OC)C2OC(O)(C(=O)C(=O)N3CCCCC3C(=O)OC(C(C)=CC3CCC(O)C(OC)C3)C(C)C(O)CC1=O)C(C)CC2OC` (stereo not drawn) — result for phosphatase activity: “no effect” (calcineurin; concentration not given).
With `O=C(O)C1OC(Oc2ccc3c(=O)c(O)c(-c4ccc(O)cc4)oc3c2)C(O)C(O)C1O` (stereo not drawn) the Vmax was 1.08 ± 0.13 nmol/mg/min (UGT1A1; glucuronidation, substrate; Supersomes).
`Cc1cc(O)c2c(c1O)C(=O)c1cc(O)cc(O)c1C2=O` has an activation of 44 ± 4.76% (D(3) dopamine receptor (DRD3, Homo sapiens, UniProt P35462); agonist; 50 µM).
The inhibition of `CNCCNC(=O)CN1C(=O)Cc2c([nH]c3ccc(Br)cc23)-c2ccc(Cl)cc21` is reported as 59 ± 6% (Trypanothione synthetase (Trypanosoma brucei brucei, UniProt Q8IEX1); enzyme activity; 30 µM).
`O=C(O)C1OC(Oc2c(-c3ccc(O)cc3)oc3ccc(O)cc3c2=O)C(O)C(O)C1O` (stereo not drawn) gave a Vmax of 0.34 ± 0.05 nmol/mg/min (UGT1A1; glucuronidation, substrate; Supersomes).
For `c1ccc2c(C3NCCc4sccc43)c[nH]c2c1` (stereo not drawn), the IC50 was 12.9 µM (COLO 320 ABCB1-resistant colon; cytotoxicity).
Under “Cu2+ binding affinity Ka”, `C[C@H](NC(=O)[C@@H](N)CC(=O)O)C(=O)N[C@@H](Cc1c[nH]cn1)C(=O)N[C@@H](CCCCN)C(N)=O` is recorded as ~10 1.000e+14 M⁻¹ (Cu2+; concentration not given).
